Measured values gathered from unrelated publications.
A part holds a random share of what one study measured.

Study 1
Target: PABPC1L2, full length, GST fusion (mouse, UniProt A0ABA7IW68)
Technique: RNAcompete
Form: RNA
Medium: in vitro
Concentration: 20 nM
Setting: 7-mer, probes averaged, single round
Baseline: mean of 7-mers
Reading: higher = stronger binding
Target sequence (chain): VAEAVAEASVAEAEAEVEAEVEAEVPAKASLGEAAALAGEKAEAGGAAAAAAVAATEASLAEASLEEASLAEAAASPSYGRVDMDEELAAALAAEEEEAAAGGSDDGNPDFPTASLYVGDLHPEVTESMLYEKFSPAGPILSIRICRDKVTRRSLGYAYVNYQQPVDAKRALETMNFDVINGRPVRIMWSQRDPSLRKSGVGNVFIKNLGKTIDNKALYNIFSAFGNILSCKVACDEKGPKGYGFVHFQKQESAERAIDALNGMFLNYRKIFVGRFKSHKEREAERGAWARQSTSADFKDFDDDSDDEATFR
Oligonucleotide	7-mer Z-score
AACACGA	0.726
AUUUAGU	0.0787
UCACGUA	-0.231
AUUACCU	-0.269
GCUGGUA	0.00436
GUGAUAC	-0.0971
CGUCCGC	-0.378
UUCAGUG	-0.271
CUGCGUC	-0.365

Study 2
Target: Histone acetyltransferase KAT6A, winged helix 1, GST fusion (KAT6A, Homo sapiens, UniProt Q92794, residues 1-85)
Technique: protein binding microarray
Form: double-stranded DNA, one strand shown
Medium: in vitro
Concentration: not given
Setting: 8-mer, flanks averaged, mean of 2 arrays, mostly near background
Baseline: not given
Reading: higher = stronger binding
Residues (chain): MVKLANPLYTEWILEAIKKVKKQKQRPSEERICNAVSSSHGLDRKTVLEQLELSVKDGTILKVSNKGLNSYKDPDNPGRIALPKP
Oligonucleotide	E-score
CATACATC	-0.0795
AACGACAC	-0.212
CGTTGGGA	-0.0576
CCTCAAGG	-0.236
GCACCGAA	0.0275
CCACCCCA	-0.286

Study 3
Target: Centromere-binding protein 1, full length, His-tagged (CBF1, Saccharomyces cerevisiae, UniProt P17106, residues 1-351)
Sequence of UniProt P17106 (whole entry, looked up): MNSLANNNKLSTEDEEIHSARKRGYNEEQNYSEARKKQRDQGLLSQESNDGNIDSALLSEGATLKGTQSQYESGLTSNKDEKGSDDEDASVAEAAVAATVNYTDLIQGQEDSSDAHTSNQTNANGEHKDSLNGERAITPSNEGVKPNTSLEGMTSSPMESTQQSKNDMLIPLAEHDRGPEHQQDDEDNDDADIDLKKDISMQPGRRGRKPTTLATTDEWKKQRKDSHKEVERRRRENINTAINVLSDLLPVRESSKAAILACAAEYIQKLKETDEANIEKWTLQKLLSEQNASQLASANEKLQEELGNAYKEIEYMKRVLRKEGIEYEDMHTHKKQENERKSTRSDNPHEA
Technique: competition protein-binding microarray
Form: double-stranded DNA, one strand shown
Medium: in vitro
Concentration: 2 µM
Setting: whole 60-bp probe, lowest competitor level
Added: Pho4 competitor, 0.05 µM
Reading: higher = stronger binding
Constant ends, left off below: … GTCTTGATTCGCTTGACGCTGCTG
Oligonucleotide	fluorescence intensity [a.u.]
TTGTTCATGAGTGAACATGTGGAAGACGAAAAACCA	118
CTTGGCACACTCTGTTGCGTGGTGAAAATAGAACCA	67.2
GCTCGCAGGGTCAACCACGTGCTGGGGAGAGGAGCC	1210
CTTTCCCGATCTTGTCACTGAACTTTAGCACATTTG	79.4
CTAACGAAGGTTTGGCATGTGGGTGACAAGCCAAGT	81.6
CCTGCAAAGCAATGCAACGTGGGCCTGTGAGGATGA	78.3

Further values, each from its own experiment
Molecule	target	test	test system	conditions	how to read	quantity	result
PhoQ, residues 284 288 289 292 302 303 SSYNSA	PhoP, residues 12 14 15 18 19 GQALL (Escherichia coli, UniProt P23836)	Sort-seq, refers to: YFP reporter	E. coli	PhoQ-PhoP variant library, added: 10 µM Mg2+	baseline: high Mg2+ state, higher = stronger signaling	fold induction	2.34
